{"data": "Assay results from different studies", "technique": "steady-state kinetics", "B1": "enzyme N249W (Thermobifida fusca, UniProt Q47RK4); chain MTDVYILDAVRTPFGRYGGALSGIRPDDLAAHVLRALAERSPGLDPAAVDDVFFGDANGAGEDNRNVARMAALLAGWPTSVPGVTLNRLCGSGMESVIAANRAIAVGDASLAVAGGVESMSRAPWVLPKPAQGFPTGHETLYSTTLGWRMVNPAMPEQWTVSLGESTEQVAATYGISRAEQDAFALRSHERAARAWAEGVFDAEITQIPGAELERDESIRETSAEKLAALKPAFRPDGTITAGNASPLWDGAAALLIGDAAAAERVGREPLARIVSRGVAAVDPDVFGIGPVQAAEIALRRAGIGWDDLSVVELNEAFAAQSLACLKLWPDLDPEIVNPNGGAIAIGHPLGASGARIVGTLAHELHRRGGGWGLAAICIGVGQGLAVVLHR", "B2": "Lxyl-p1-1 (Lentinula edodes, UniProt G8GLN9); chain YFSGLGLGSERSIFRRDLNSTGDESNSTQWPAPLANGGKSWASAFKKAKSTVAEMTVEELANITSGVIGLCVGVTGAVTRLGIPELCLQDGPIGPRGVHGSSQFPAGLTVAATWDRTLMYARARGMGQEFHDQGVHIALAPVTGGPLGRTPLNGRGWEGTFADPYACGEASYQSVKGLTDAGVATVSKHWIAYEQETSRNLYIEFDGVSQADIQLPISSNVDDLTMHELYMWSFAEAVRAGTNHIMCSYNRINNTHSCNNAKGLNQLLKTELNFQGGVVSDWGGQWDSVLSAENGLDVGMPGEGFLGELGDFWGTTLADLINNGTVSEDLVRDKVVRLLTGYYYLGQDINPPPPFVYNTIGAPTLNATSGYRNVRKPGTAELIKEIGSASVTLLKNTGSLPLKHPQRIAVLGNDATYNVLGPNACGLANSACDIDNLNGTLTTGGGSGSALSPYTITPLEALQKRAIEDNAEIAAVVANSNTTTGAEDAIAALLPDADVTFVFLNRYSEEGADAPDFSLGGDGDNLMDLAVTYSSNVVVVIHTTGVVDIEKWADNPNVTAILVAYLPGQEAGNSLVPVLYGDVAPSGKLPWTWGKSIDDYVPNGVVYTDAYSPQSNFTEGVFIDYRWFDKMGITPRYEFGFGLSYTTFTYSNLIVDHGRWAKDYSSVMETAEPFAEWDGTNSLYDVIFTVFATITNTGNLTGSEVAQLYISIPGDNQPVRQLRGFDKIKDLPVGDSAVVTFPIRRKDVSSWSVVDQLWYVPNGDFLISVGGSSRDLPLNTTWTP", "B3": "GLYR2 (Arabidopsis thaliana, UniProt F4I907); chain STRDELGTVSIGFLGMGIMGSPMAQNLIKAGCDVTVWNRTKSKCDPLVGLGAKYKSSPEEVTATCDLTFAMLADPESAIDVACGKNGAIFGISSGKGYVDVSTVDVASSILISKQIKDTGALFLEAPVSGSKKPAEDGQLIFLTAGDKPLYEKAAPFLDIMGKSKFYLGEVGNGAAMKLVVNMIMGSMMASFAEGILLSQKVGLDPNVLVEVVSQGAINAPMYSLKGPSMIKSVYPTAFPLKHQQKDMRLALGLAESVSQSTPIAAAANELYKVAKSYGLSDEDFSAVIEALKAAKSREA", "B4": "TcC (Trypanosoma cruzi, UniProt Q4DGA3); chain MPREYEFAEKILFTEEEIRTRIMEVAKRIADDYKGKGLRPYVNPLVLISVLKGSFMFTADLCRALSDFNVPVRMEFICVSSYGEGVTSSGQVRMLLDTRHSIEGHHVLIVEDIVDTALTLNYLYHMYFTRRPASLKTVVLLDKREGRRVPFSADYVVANIPNAFVIGYGLDYDDTYRELRDIVVLRPEVYAEREAARQKKQRAIGSADTDRDAKREFHSKY", "B5": "enzyme N1029G (Limosilactobacillus reuteri, UniProt Q5SBN3); chain INGQQYYIDPTTGQPRKNFLLQNGNDWIYFDKDTGAGTNALKLQFDKGTISADEQYRRGNEAYSYDDKSIENVNGYLTADTWYRPKQILKDGTTWTDSKETDMRPILMVWWPNTVTQAYYLNYMKQYGNLLPASLPSFSTDADSAELNHYSELVQQNIEKRISETGSTDWLRTLMHEFVTKNSMWNKDSENVDYGGLQLQGGFLKYVNSDLTKYANSDWRLMNRTATNIDGKNYGGAEFLLANDIDNSNPVVQAEELNWLYYLMNFGTITGNNPEANFDGIRVDAVDGVDVDLLSIARDYFNAAYNMEQSDASANKHINILEDWGWDDPAYVNKIGNPQLTMDDRLRNAIMDTLSGAPDKNQALNKLITQSLVNRANDNTENAVIPSYNFVRAHDSNAQDQIRQAIQAATGKPYGEFNLDDEKKGMEAYINDQNSTNKKWNLYNMPSAYTILLTNKDSVPRVYYGDLYQDGGQYMEHKTRYFDTITNLLKTRVKYVAGGQTMSVDKNGILTNVRFGKGAMNATDTGTDETRTEGIGVVISNNTNLKLNDGESVVLHMGAAHKNQKYRAVILTTEDGVKNYTNDTDAPVAYTDANGDLHFTNTNLDGQQYTAVRGYANPDVTGYLAVWVPAGAADDQDARTAPSDEAHTTKTAYRSNAALDSNVIYEGFSNFIYWPTTESERTNVRIAQNADLFKSWGITTFELAPQYNSSKDGTFLDSIIDNGYAFTDRYDLGMSTPNKYGSDEDLRNALQALHKAGLQAIADWVPDQIYNLPGKEAVTVTRSDDHGTTWEVSPIKNVVYITNTIGGGEYQKKYGGEFLDTLQKEYPQLFSQVYPVTQTTIDPSVKIKEWSAKYFNGTNILHRGAGYVLRSNDGKYYNLGTSTQQFLPSQLSVQDNEGYGFVKEGNNYHYYDENKQMVKDAFIQDSVGNWYYFDKNGNMVANQSPVEISSNGASGTYLFLNNGTSFRSGLVKTDAGTYYYDGDGRMVRNQTVSDGAMTYVLDENGKLVSESFDSSATEAHPLKPGDLNGQK", "B6": "sbnA (Staphylococcus aureus, UniProt A6QDA0); chain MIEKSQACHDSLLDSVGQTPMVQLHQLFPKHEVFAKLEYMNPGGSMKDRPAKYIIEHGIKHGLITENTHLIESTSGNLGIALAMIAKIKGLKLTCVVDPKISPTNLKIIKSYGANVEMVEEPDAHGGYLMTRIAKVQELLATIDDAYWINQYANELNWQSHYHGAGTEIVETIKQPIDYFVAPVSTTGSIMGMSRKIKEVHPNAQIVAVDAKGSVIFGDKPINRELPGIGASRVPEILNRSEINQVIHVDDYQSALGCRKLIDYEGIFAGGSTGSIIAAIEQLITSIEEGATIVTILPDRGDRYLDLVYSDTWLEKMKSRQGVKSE", "B7": "enzyme E217L/L163H/N249W (Thermobifida fusca, UniProt Q47RK4); chain MTDVYILDAVRTPFGRYGGALSGIRPDDLAAHVLRALAERSPGLDPAAVDDVFFGDANGAGEDNRNVARMAALLAGWPTSVPGVTLNRLCGSGMESVIAANRAIAVGDASLAVAGGVESMSRAPWVLPKPAQGFPTGHETLYSTTLGWRMVNPAMPEQWTVSHGESTEQVAATYGISRAEQDAFALRSHERAARAWAEGVFDAEITQIPGAELERDLSIRETSAEKLAALKPAFRPDGTITAGNASPLWDGAAALLIGDAAAAERVGREPLARIVSRGVAAVDPDVFGIGPVQAAEIALRRAGIGWDDLSVVELNEAFAAQSLACLKLWPDLDPEIVNPNGGAIAIGHPLGASGARIVGTLAHELHRRGGGWGLAAICIGVGQGLAVVLHR", "B8": "YjiA C66A/C67A/E37A (Escherichia coli, UniProt P24203); chain MNPIAVTLLTGFLGAGKTTLLRHILNEQHGYKIAVIANEFGEVSVDDQLIGDRATQIKTLTNGCIAASRSNELEDALLDLLDNLDKGNIQFDRLVIECTGMADPGPIIQTFFSHEVLCQRYLLDGVIALVDAVHADEQMNQFTIAQSQVGYADRILLTKTDVAGEAEKLHERLARINARAPVYTVTHGDIDLGLLFNTNGFMLEENVVSTKPRFHFIADKQNDISSIVVELDYPVDISEVSRVMENLLLESADKLLRYKGMLWIDGEPNRLLFQGVQRLYSADWDRPWGDEKPHSTMVFIGIQLPEEEIRAAFAGLRK", "note": "Each line is one published result; not all experiments were run side by side. Numbers after ± are the reported error.", "chain of UniProt G3XD23 (whole entry, looked up)": "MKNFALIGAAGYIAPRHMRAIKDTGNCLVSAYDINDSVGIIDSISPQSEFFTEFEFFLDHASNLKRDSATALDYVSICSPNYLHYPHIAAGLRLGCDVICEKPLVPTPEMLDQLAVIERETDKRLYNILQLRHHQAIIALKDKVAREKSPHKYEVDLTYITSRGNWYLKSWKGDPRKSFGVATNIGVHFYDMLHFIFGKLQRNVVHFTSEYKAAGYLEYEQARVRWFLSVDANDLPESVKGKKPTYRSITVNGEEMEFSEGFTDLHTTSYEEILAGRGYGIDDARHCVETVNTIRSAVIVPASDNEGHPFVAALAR", "chain of UniProt Q6XEC0 (whole entry, looked up)": "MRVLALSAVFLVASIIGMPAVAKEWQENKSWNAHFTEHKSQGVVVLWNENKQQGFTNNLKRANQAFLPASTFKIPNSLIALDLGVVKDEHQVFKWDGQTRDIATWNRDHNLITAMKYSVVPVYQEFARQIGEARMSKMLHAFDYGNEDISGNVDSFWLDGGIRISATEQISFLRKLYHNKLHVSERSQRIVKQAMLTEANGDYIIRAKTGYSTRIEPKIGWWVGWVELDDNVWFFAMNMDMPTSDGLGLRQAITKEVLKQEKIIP", "chain of UniProt P0A0C1 (whole entry, looked up)": "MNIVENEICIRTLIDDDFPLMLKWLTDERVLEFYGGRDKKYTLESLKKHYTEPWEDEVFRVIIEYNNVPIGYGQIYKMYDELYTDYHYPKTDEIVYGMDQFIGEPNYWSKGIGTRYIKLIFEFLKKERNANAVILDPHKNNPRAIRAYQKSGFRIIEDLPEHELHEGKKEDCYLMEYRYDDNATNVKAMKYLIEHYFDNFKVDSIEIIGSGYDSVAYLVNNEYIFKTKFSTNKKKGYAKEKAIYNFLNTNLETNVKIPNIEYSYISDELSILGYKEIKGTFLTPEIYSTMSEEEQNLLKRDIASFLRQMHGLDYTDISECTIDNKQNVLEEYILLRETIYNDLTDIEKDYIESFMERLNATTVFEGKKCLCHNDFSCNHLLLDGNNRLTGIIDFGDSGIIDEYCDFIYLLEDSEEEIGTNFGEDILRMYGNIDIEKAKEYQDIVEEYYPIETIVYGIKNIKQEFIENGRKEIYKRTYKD", "chain of UniProt P33378 (whole entry, looked up)": "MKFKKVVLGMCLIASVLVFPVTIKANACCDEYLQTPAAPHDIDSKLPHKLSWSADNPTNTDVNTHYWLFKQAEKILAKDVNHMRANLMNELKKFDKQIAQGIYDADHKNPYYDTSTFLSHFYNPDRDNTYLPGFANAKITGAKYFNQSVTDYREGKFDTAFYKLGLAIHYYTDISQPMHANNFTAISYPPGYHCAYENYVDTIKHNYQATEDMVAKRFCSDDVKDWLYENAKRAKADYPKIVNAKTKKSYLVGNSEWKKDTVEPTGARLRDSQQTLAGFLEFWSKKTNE"}
{"Substance": "B1 (enzyme N249W)", "substrate": "CC(=O)SCCNC(=O)CCNC(=O)[C@H](O)C(C)(C)COP(=O)(O)OP(=O)(O)OC[C@H]1O[C@@H](n2cnc3c(N)ncnc32)[C@H](O)[C@@H]1OP(=O)(O)O", "setting": "pH 7.4, 37 °C", "kcat/Km [M⁻¹ s⁻¹]": 4.5}
{"Substance": "OXA-48 (Klebsiella pneumoniae, UniProt Q6XEC0)", "substrate": "CC(=O)OCC1=C(C(=O)O)N2C(=O)[C@@H](NC(=O)Cc3cccs3)[C@H]2SC1", "setting": "pH 7.2, 30 °C", "kcat/Km [M⁻¹ s⁻¹]": 20000}
{"Substance": "B2 (Lxyl-p1-1)", "substrate": "[H][C@]12[C@H](OC(=O)c3ccccc3)[C@]3(O)C[C@H](OC(=O)[C@H](O)[C@@H](NC(=O)c4ccccc4)c4ccccc4)C(C)=C([C@@H](O)C(=O)[C@]1(C)[C@@H](O[C@@H]1OC[C@@H](O)[C@H](O)[C@H]1O)C[C@@]1([H])OC[C@@]21OC(C)=O)C3(C)C", "kcat/Km [M⁻¹ s⁻¹]": "3720 ± 60"}
{"Substance": "B3 (GLYR2)", "substrate": "NC(=O)C1=CN([C@@H]2O[C@H](COP(=O)(O)OP(=O)(O)OC[C@H]3O[C@@H](n4cnc5c(N)ncnc54)[C@H](OP(=O)(O)O)[C@@H]3O)[C@@H](O)[C@H]2O)C=CC1", "setting": "pH 7.6, 30 °C, cofactor varied", "kcat/Km [M⁻¹ s⁻¹]": "8.55e+06 ± 960000"}
{"Substance": "protein (Rhodopseudomonas palustris, UniProt Q6N3R9)", "substrate": "CCCCCCCCOC(C)=O", "setting": "pH 8.3, NaCl 150 mM, no saturation, added: CaCl2 1 mM", "kcat/Km [M⁻¹ s⁻¹]": 134}
{"Substance": "B4 (TcC)", "substrate": "Oc1ncnc2[nH]ncc12", "setting": "pH 8.3, 37 °C, apparent, added: PRPP 1 mM, MgCl2 12 mM", "kcat/Km [M⁻¹ s⁻¹]": "8000 ± 2000"}
{"Substance": "B5 (enzyme N1029G)", "substrate": "OC[C@H]1O[C@@](CO)(O[C@H]2O[C@H](CO)[C@@H](O)[C@H](O)[C@H]2O)[C@@H](O)[C@@H]1O", "setting": "pH 4.7, 37 °C", "kcat/Km [M⁻¹ s⁻¹]": 12100}
{"Substance": "CPB2 (Homo sapiens, UniProt Q96IY4)", "substrate": "C[C@H](NC(=O)[C@H](Cc1ccccc1)NC(=O)[C@H](CCC(N)=O)NC(=O)CNC(=O)[C@@H]1CCCN1C(=O)[C@H](Cc1ccccc1)NC(=O)[C@@H](N)Cc1ccc(O)cc1)C(=O)N[C@@H](Cc1ccccc1)C(=O)N[C@@H](CO)C(=O)N[C@@H](CCCCN)C(=O)O", "setting": "37 °C", "kcat/Km [M⁻¹ s⁻¹]": 22000}
{"Substance": "MilB F17Y (Streptomyces rimofaciens)", "substrate": "Nc1ccn([C@H]2C[C@H](O)[C@@H](COP(=O)(O)O)O2)c(=O)n1", "setting": "pH 7.5, 37 °C", "kcat/Km [M⁻¹ s⁻¹]": 100}
{"Substance": "B6 (sbnA)", "substrate": "N[C@@H](CCC(=O)O)C(=O)O", "setting": "pH 8, 25 °C, added: OPS", "kcat/Km [M⁻¹ s⁻¹]": "1100 ± 78"}
{"Substance": "B7 (enzyme E217L/L163H/N249W)", "substrate": "CC(=O)SCCNC(=O)CCNC(=O)[C@H](O)C(C)(C)COP(=O)(O)OP(=O)(O)OC[C@H]1O[C@@H](n2cnc3c(N)ncnc32)[C@H](O)[C@@H]1OP(=O)(O)O", "setting": "pH 7.4, 37 °C", "kcat/Km [M⁻¹ s⁻¹]": 2}
{"Substance": "plcB (Listeria monocytogenes, UniProt P33378)", "substrate": "CCCC(=O)OC[C@H](COP(=O)([O-])OCC[N+](C)(C)C)OC(=O)CCC", "setting": "pH 6, 37 °C", "kcat/Km [M⁻¹ s⁻¹]": "180 ± 20"}
{"Substance": "wbpB (Pseudomonas aeruginosa, UniProt G3XD23)", "substrate": "O=C(O)CCC(=O)C(=O)O", "setting": "pH 8.5, 25 °C", "kcat/Km [M⁻¹ s⁻¹]": "4.1e+06"}
{"Substance": "B8 (YjiA C66A/C67A/E37A)", "substrate": "Nc1nc2c(ncn2[C@@H]2O[C@H](COP(=O)(O)OP(=O)(O)OP(=O)(O)O)[C@@H](O)[C@H]2O)c(=O)[nH]1", "setting": "pH 7.6, 37 °C, apo, anaerobic, added: MgCl2 5 mM", "kcat/Km [M⁻¹ s⁻¹]": "6 ± 3"}
{"Substance": "enzyme (Paenarthrobacter nicotinovorans, UniProt P08159)", "substrate": "CN1CCC[C@@H]1c1ccc(O)nc1", "setting": "pH 8, 25 °C", "kcat/Km [M⁻¹ s⁻¹]": "380000 ± 52000"}
{"Substance": "aacA-aphD (Staphylococcus aureus, UniProt P0A0C1)", "substrate": "NCC[C@H](O)C(=O)N[C@@H]1C[C@H](N)[C@@H](O[C@H]2O[C@H](CN)[C@@H](O)[C@H](O)[C@H]2O)[C@H](O)[C@H]1O[C@H]1O[C@H](CO)[C@@H](O)[C@H](N)[C@H]1O", "setting": "pH 7.5, 25 °C", "kcat/Km [M⁻¹ s⁻¹]": 23000}
{"note": "For quick reference, copied from above:"}
{"Substance": "B7 (enzyme E217L/L163H/N249W)", "substrate": "CC(=O)SCCNC(=O)CCNC(=O)[C@H](O)C(C)(C)COP(=O)(O)OP(=O)(O)OC[C@H]1O[C@@H](n2cnc3c(N)ncnc32)[C@H](O)[C@@H]1OP(=O)(O)O", "setting": "pH 7.4, 37 °C", "kcat/Km [M⁻¹ s⁻¹]": 2}
